Experimental data collected from several papers.
A part holds a random share of what one study measured.

Study 1
Target: PABPC1L2, full length, GST fusion (mouse, UniProt A0ABA7IW68)
Technique: RNAcompete
Form: RNA
Matrix: in vitro
Concentration: 20 nM
Notes: 7-mer, probes averaged, single round
Reference: mean of 7-mers
Direction: higher = stronger binding
Endpoint: 7-mer Z-score
Target sequence (chain): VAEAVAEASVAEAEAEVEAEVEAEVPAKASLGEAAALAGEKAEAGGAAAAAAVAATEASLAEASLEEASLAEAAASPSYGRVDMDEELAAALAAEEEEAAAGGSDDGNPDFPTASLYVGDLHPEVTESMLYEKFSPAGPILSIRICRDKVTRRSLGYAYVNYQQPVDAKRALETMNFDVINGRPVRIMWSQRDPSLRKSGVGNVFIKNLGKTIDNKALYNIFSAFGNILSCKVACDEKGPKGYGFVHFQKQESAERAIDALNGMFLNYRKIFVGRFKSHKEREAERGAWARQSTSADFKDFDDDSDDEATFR
AUAUGAA: 0.115
CCUUUUU: 0.124
GGAUAUA: 0.106
ACGUGAU: -0.0772
ACUAAUC: -0.215
AUACUUU: -0.0518
CUCUACU: -0.291

Study 2
Target: Sal-like protein 4, full length isoform B (SALL4, Homo sapiens, UniProt Q9UJQ4-2, residues 1-616)
Technique: universal PBM
Form: double-stranded DNA, one strand shown
Matrix: in vitro
Concentration: not given
Notes: 8-mer, flanks averaged, mean of replicates
Direction: higher = stronger binding
Endpoint: E-score
AAGGACGC: -0.0735
CCTGACCG: -0.278
AAATAATG: 0.318

Study 3
Target: TAR DNA-binding protein 43, full length, His tag (TARDBP, Homo sapiens, UniProt Q13148, residues 1-414)
Technique: RNA Bind-n-Seq
Form: RNA
Matrix: in vitro
Concentration: 20 nM
Notes: 6-mer, flanks averaged, single round
Together with: 150 mM LiCl
Reference: input library
Direction: higher = stronger binding
Endpoint: 6-mer enrichment (R)
AUGCCU: 0.952
CUCGUG: 0.918
CACCAA: 0.946
UGGUUG: 1.37

Single results of other studies
PhoQ, residues 284 288 289 292 302 303 ASVMEA
fold induction (PhoP, residues 12 14 15 18 19 NMSFL (Escherichia coli, UniProt P23836); Sort-seq, refers to: YFP reporter; E. coli; PhoQ-PhoP variant library, together with: 10 µM Mg2+; reference: high Mg2+ state, higher = stronger signaling): 25.9

Some of these lines once more (study 3):
AUGCCU: 0.952
